Measured values from different studies.
Numbered parts are unrelated; each lists some results of a single study. Positions count from the first letter of the parent shown.

Sample 1 — technique: RNA Bind-n-Seq; form: RNA; sample: in vitro; concentration: 365 nM; baseline: no-protein control; direction: higher = stronger binding
Target: RNA binding protein fox-1 homolog 2, RRM domain, GST-SBP tag (RBFOX2, Homo sapiens, UniProt O43251-10, residues 100-194)
Notes: natural RNA segment, single round, ends assumed
Shared flanks, not repeated: GGGAGUUCUACAGUCCGACGAUC … UGGAAUUCUCGGGUGCCAA
Residues (chain): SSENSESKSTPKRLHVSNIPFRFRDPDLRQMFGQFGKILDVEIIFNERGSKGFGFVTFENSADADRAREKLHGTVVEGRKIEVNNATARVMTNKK
Strand | RBNS enrichment (R)
GGAGGAGGAGCCAGGCAGCAGGGCCUUCCUGACCAACAGCCAGCUCUGUCCUUCCCCCCAGGAAACACAUGUUCAUUUGUGUGAUCAUGUAUAGACCUCAGAACGGAAGA | 0.248
AUGCCAGCACUAGCCAGCUGGUGGGUAUUUGGAGGAAUCCUGCAUGAGGAUUGCCCAAUAAGGGGCAGGUACACAUACCUGGCAAAGUGAUGAUGAUGUGAAUUGUUUCC | 3.28
GCUUCCUUGUUUAUGAAGUGAGGUGGUUUCUAGUGCUUUUCCAGGUUCUGCCUUAGUUAAAAACUAAGGCAGGUAAACAGAGAUGAAUCCUUGUGAAAAGCAUCUAAGGG | 0.236
UCCCUAUGUUUUCCCCCUUUGAAAAUUUUUCUCAGUUAAAUUAAGCUACUGAUUUGAAUUUGUUUUUAUCUUGUCCUAAAGUCUUUGUUCUUGAAAUGCAAGGUAUUUGG | 0.468
GCCAUUGUGAGGUUGGGGGAAGACCUGGCCGUGGAGCUACAAGCUUGUGCGGAUGUCAGGGGACAUUACUGUUGCUAAUAAAGUCCAAAGUGGCCAAUGCCUUUCCCAAA | 0.641
AAAUGAUGUUCCAGAAAGAUUACUUUUUCUUUUAUUUUUACUGCCAUUGUUGAUGUGUUGUGGGACAUUUUUAUAUAUUGAACCUGGGUUCUUUUUUGAUCUGUUUUGGU | 0.539
GCCCUUCCUCUCCCACAUUAUUUCUUAAUCUGAACAUGAAGGCUCCAUUAGCAACACUAAAACUUGAUCAUUAACAGCCCCCUGUGCAUAUGAGUGGAUCAAACCGGUUC | 0.824
CUUUAGGAACUGCCUGUCCAUGAGAUGUCCCGUGAGGUCAUAGCUCCCUCUUUAGGGACUGUCUGUCCAGUGACAGAUUAGCCAUAGAGUCAUGACACUUAGUAAGUUUG | 0.349
GCUGCCCAUGCAGCAGAGGGCAGAAGGCUUGCACUUGGGCCAAAGGGCCUAAGGUCCACUGGACAGUUGGGAAAACACCUGACCACCAUUUAAGGACUCUAAGCCAGAAU | 0.356
UUCUAGCCAAAGAUGAUAAAGGGGGAAAUGGUUUUUAGUGCGUAUAUUAUACUGCCUCUUAGGUGUACUCUUUAUAAGCUGGUAAACCAAGAAUCUAGGGAGUGGCCAAA | 0.531
AGAGUCAAAUGGACAGUAGAAGCAUGUGAUAGCCAGAAGGGCUGAGGCUGAUCUGGGUCCCCCAAAGCCCAGAGAGAGAGAGAUAGACUCUGCACAACCUCUCGGUGCUA | 16.8
UAAAGAAGGGACUUGAAUUUUAGGGACUUUAAUUCACCCUUUCCUUCAAUCCAGCUUUCCCCCUUCUUGUUUGCACAUGCCAAGAUAACUGCUUUUAUGCAGGCUUUACC | 0.588

Sample 2 — target: NFE2, bZIP domain (human); technique: DHFR protein complementation; sample: yeast; baseline: wild-type JUN-FOS pair; direction: higher = stronger binding
Notes: single substitutions, most at no-binding floor
Starting sequence: JUN, bZIP domain (human); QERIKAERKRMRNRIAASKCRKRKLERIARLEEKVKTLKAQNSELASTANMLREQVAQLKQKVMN; partner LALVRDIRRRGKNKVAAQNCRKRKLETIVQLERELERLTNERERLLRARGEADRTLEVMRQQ
Variant | binding fitness
I28F | -1.45 natural log
I28N | -1.31 natural log
E54A | -1.38 natural log
V56L | -1.39 natural log
K39A | -1.3 natural log
S43A | -1.27 natural log
M51P | -1.5 natural log
N42P | -1.53 natural log
A49D | -1.44 natural log
R53A | -1.17 natural log
A57Q | -1.49 natural log
L31A | -1.36 natural log
A57E | -1.5 natural log
E33N | -1.47 natural log
Q41E | -1.48 natural log
V35F | -1.5 natural log
A40K | -1.36 natural log
I28T | -1.5 natural log
L52T | -1.52 natural log
K39I | -1.45 natural log
E44Y | -1.46 natural log
N42E | -1.44 natural log
V56D | -1.48 natural log
K34L | -1.25 natural log
S47L | -1.23 natural log

Sample 3 — technique: protein-binding microarray; form: double-stranded DNA, one strand shown; sample: in vitro; concentration: 250 nM; notes: 60-bp whole probe; added: salmon DNA 0.4 mg/ml; baseline: random background probes; direction: higher = stronger binding; shared flanks, not repeated: GCCTAGCAC … GTCTTGATTCGCTTGACGCTGCTG
Target: Interferon regulatory factor 5, full length, phosphomimetic (IRF5, Homo sapiens, UniProt Q13568-2, residues 1-514, K96S/S451D/S453D/S456D/S462D)
Strand | log fluorescence
TTAGATAGCAGTTTCGATTAGTGCTAG | 9.09 z-score
TCAAGACTCATAATGGCACTGTGCTAG | -0.0897 z-score
TGGCTTTGCCTTTTGCTTTAGTGCTAG | -0.225 z-score
TTAGGTATCCCTATCCTTTAGTGCTAG | 0.0705 z-score
GTCGATATCAGTATCGAGACGTGCTAG | 4.74 z-score
TAAGGTTTCGGTTCCGGTTAGTGCTAG | 9.83 z-score
GACGATTTCAGGTATCGAGACGTGCTA | 1.6 z-score
TTAGGTTTCGACACTGGGTGAGTGCTA | 5.79 z-score
GACGAACTGAGTATCGAAACGTGCTAG | 4.55 z-score
TTAGAACTGAGTTTCGATTAGTGCTAG | 9.22 z-score
GACGGTTTCGGGTTTCGGCACGTGCTA | 7.73 z-score
CTAGAACTGAGTCTCGATTAGTGCTAG | 0.487 z-score
GACGGTATCGGCCTGGGGACGTGCTAG | 1.65 z-score
AAATTCTGATATAATTCAAAGTGCTAG | 0.795 z-score
GACGGACTCGGGTTTCGGGACGTGCTA | 1.33 z-score
GACGGACTGAGTCTCGAGACGTGCTAG | -0.393 z-score
TTAGGTTTCGACACAGGGTTAGTGCTA | 6.39 z-score
GACGATATCGGACTGGGGACGTGCTAG | 0.561 z-score
GACGATATCAGTTTCGAGACGTGCTAG | 6.74 z-score
TCAAGTTTTCATTTTCTACTGTGCTAG | 2.64 z-score
TTAGATATCGGGTATCGATTTGTGCTA | 5.17 z-score
GTGTTCTGGGCAGCAGAGGGGTGCTAG | -0.85 z-score
TCACAAGTCTTGTTTTACACTGTGCTA | 0.591 z-score
TTAGATATAAGTTTCGATTAGTGCTAG | 8.64 z-score
TTACGTTTCGGTCTCGGTTAGTGCTAG | 10.8 z-score

Sample 4 — target: CCNF, cyclin fold, Cln2 fusion (human); technique: yeast growth competition, sequencing; sample: yeast; notes: strong parent motif; baseline: not given; direction: higher = stronger binding
Starting sequence: INSM1 docking peptide (human); PKAIRKLHFEDEV
Variant | normalised enrichment score
PKAIRMLHFEDEV [K6M] | 6.83
PKAIRKLQFEDEV [H8Q] | 7.58
PKKIRKLHFEDEV [A3K] | 3.07
PKAIRKLHFEDRV [E12R] | 7.13
PKADRKLHFEDEV [I4D] | 3.8
PKAIRKLHSEDEV [F9S] | 0.465
PKAIRKTHFEDEV [L7T] | 0.217
PKAIRKLKFEDEV [H8K] | 7.53
PKAIRKGHFEDEV [L7G] | -0.109
PKAWRKLHFEDEV [I4W] | 6.72
PKAIRKLHLEDEV [F9L] | 4.82
PKAIRNLHFEDEV [K6N] | 3.04
PKAIRKLHFETEV [D11T] | 7.08
PKAERKLHFEDEV [I4E] | 4.01
PKAIRKLSFEDEV [H8S] | 6.49
PKAIRKLHMEDEV [F9M] | 5.11
PKTIRKLHFEDEV [A3T] | 7.57

Sample 5 — technique: DHFR PCA, deep sequencing; sample: yeast; added: (+)-ABA 4.8 µM; baseline: wild-type fitted maximum; direction: higher = stronger binding
Target: ABI1, truncated, D143A, DHFR fusion (Arabidopsis thaliana)
Notes: methotrexate growth selection, single substitutions
Starting sequence: PYL1, truncated, DHFR fusion (Arabidopsis thaliana); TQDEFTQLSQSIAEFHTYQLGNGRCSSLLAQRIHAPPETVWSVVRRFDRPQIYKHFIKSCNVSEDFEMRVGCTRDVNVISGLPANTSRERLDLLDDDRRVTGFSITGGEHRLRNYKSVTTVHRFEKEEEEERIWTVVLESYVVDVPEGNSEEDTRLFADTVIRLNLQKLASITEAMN
Variant | relative binding score
L138F | 53.5%
V121Y | -6.05%
S150H | 7.78%
D159T | -3.91%
D48L | -8.84%
N61Y | 69.1%
E109G | 29.7%
S42Y | 12.9%
L20A | 82.1%
R155I | 62.3%
F157Y | 25.5%
F56N | -1.42%
F124T | 25.5%
I57L | 51.8%

Further values, each from its own experiment
Molecule | target | test | system | setting | how to read | quantity | result
PhoQ, residues 284 288 289 292 302 303 TLSLKA | PhoP, residues 12 14 15 18 19 QWHVF (Escherichia coli, UniProt P23836) | Sort-seq, refers to: YFP reporter | E. coli | PhoQ-PhoP variant library, added: 10 µM Mg2+ | baseline: high Mg2+ state, higher = stronger signaling | fold induction | 1.76

Excerpt of the above (sample 2):
Variant | binding fitness
S43A | -1.27 natural log
M51P | -1.5 natural log
N42P | -1.53 natural log
A49D | -1.44 natural log
R53A | -1.17 natural log
A57Q | -1.49 natural log
L31A | -1.36 natural log
